# Results pooled from the literature.
# Each numbered part is a random draw from the data of one study; scales do not carry over between parts.

# Sample 1
# Target: Histone acetyltransferase KAT6A, winged helix 1, GST fusion (KAT6A, Homo sapiens, UniProt Q92794, residues 1-85)
# Technique: protein binding microarray
# Form: double-stranded DNA, one strand shown
# Medium: in vitro
# Concentration: not given
# Notes: 8-mer, flanks averaged, mean of 2 arrays, mostly near background
# Reference: not given
# Direction: higher = stronger binding
# Construct (chain): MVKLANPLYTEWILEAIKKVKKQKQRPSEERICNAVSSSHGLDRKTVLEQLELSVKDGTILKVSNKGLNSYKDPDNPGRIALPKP
Strand,E-score
AATAGATA,-0.223
CTATCAGA,-0.0452
GTGATTAA,-0.114
CACATCTA,-0.125
GGGGACAC,-0.0192
CGTCATTA,0.074
CGAAACAG,-0.156
TACCCGTA,0.34
CAGTCCTC,-0.277
AGGCGACG,0.235
CAAAGGCC,0.0539

# Sample 2
# Target: Prothrombin, mature alpha-thrombin (F2, Homo sapiens, UniProt P00734)
# Technique: aptamer microarray, sandwich
# Form: DNA with 2'F-ANA
# Medium: in vitro
# Concentration: 200 nM
# Notes: whole 15-mer aptamer, many near background
# With: Cy3 exosite-II aptamer, 400 nM
# Direction: higher = stronger binding
# Strand: GGTTGGTGTGGTTGG
Modification,mean fluorescence intensity
2'F-ANA at 2 4 5 6 8 9 14 15,48.4 a.u.
2'F-ANA at 1 4 5 6 10 11 13 14 15,47.4 a.u.
2'F-ANA at 4 6 8 9 10 11 13 15,58.3 a.u.
2'F-ANA at 1 6 7 8 9 10 12 14 15,51.2 a.u.
2'F-ANA at 1 2 6 7 9 11 13 15,84.8 a.u.
2'F-ANA at 2 4 6 9 10 13 15,67.6 a.u.
2'F-ANA at 1 2 4 6 9 10 12 13 14,45 a.u.
2'F-ANA at 3 4 5 6 9 10 11 12,115 a.u.
2'F-ANA at 1 4 6 7 8 9 14 15,55.9 a.u.
2'F-ANA at 3 6 8 9 10 12 13 14 15,378 a.u.
2'F-ANA at 1 2 3 5 6 8 9 12,134 a.u.
2'F-ANA at 1 2 5 9 11 12 14,48.7 a.u.
2'F-ANA at 1 2 7 8 9 11 14,55.1 a.u.

# Single results of other studies
Substance,tested on,assay,system,setting,how to read,quantity,result
"EVI5 (Homo sapiens, UniProt O60447)","Leucine-rich repeat transmembrane protein 3 (Homo sapiens, UniProt Q8NDH2)",cross-linking MS,cells,with: BSPNO,,cross-linked residues,M1 to K110
"PhoQ, residues 284 288 289 292 302 303 QWQEDG","PhoP, residues 12 14 15 18 19 SFCSL (Escherichia coli, UniProt P23836)","Sort-seq, item: YFP reporter",E. coli,"PhoQ-PhoP variant library, with: 10 µM Mg2+","reference: high Mg2+ state, higher = stronger signaling",fold induction,15.8

# Excerpt of the above (sample 1):
Strand,E-score
CAGTCCTC,-0.277
AGGCGACG,0.235
CAAAGGCC,0.0539
